Assay results from different studies.
Lines come from different studies, so protocols differ. ± gives the spread as reported.
Cell line: KB

N#Cc1c(-c2ccco2)[n+]([O-])c2ccc(F)cc2[n+]1[O-] — IC50 (cell growth or viability, resazurin; 72 h): 5.59 µM
Cc1cccc2c1NC(=O)C21C2=C(COC2=O)NC2=C1C(=O)c1ccccc1C2=O (stereo not shown) — IC50 (cell growth or viability, MTT; 72 h): 10 µM
C=C(C)[C@@H]1CC[C@]2(COC(=O)CCC(=O)O)CC[C@]3(C)[C@H](CC[C@@H]4[C@@]5(C)CC[C@H](OC(=O)CCC(=O)O)C(C)(C)[C@@H]5CC[C@]43C)[C@@H]12 — IC50 (cell growth or viability, SRB; 72 h): 7.17 µg/mL
O=[N+]([O-])/C=C/c1ccco1 — selectivity index (mean of three Leishmania species; reference: KB CC50 over Leishmania IC50): 4
C=CC(=C)CC[C@]1(C)[C@H](C)C[C@H](O)[C@@]23C(=C[C@H](OC(=O)C(C)C)C[C@@H]12)[C@@H](OC(C)=O)O[C@H]3OC(C)=O — IC50 (cell growth or viability, SRB): 0.56 µM
C/C(=C\c1ccco1)[N+](=O)[O-] — selectivity index (mean of three Leishmania species; reference: KB CC50 over Leishmania IC50): 11.7
CN(C)CC(=O)Nc1cccc(Nc2ncc(F)c(Nc3ccc(F)cc3)n2)c1 — GI50 (cell growth; 72 h): 1.26 ± 0.05 µM
N#Cc1c(-c2ccco2)[n+]([O-])c2ccccc2[n+]1[O-] — IC50 (cell growth or viability, resazurin; 72 h): 6.52 µM
C=CC(=C)CC[C@]1(C)[C@H](C)CC[C@@]23C(=C[C@H](OC(=O)C(C)C)C[C@@H]12)[C@@H](OC(C)=O)O[C@H]3OC(C)=O — IC50 (cell growth or viability, SRB): 25.1 µM
CCCCCCCCCCCCCCCCC1CC(=O)NCCCN(C)CCCCN(C)CCCN1C (stereo not shown) — IC50 (cell growth or viability, neutral red; 48 h): 1.9 µg/mL

Excerpt of the above:
C/C(=C\c1ccco1)[N+](=O)[O-] — selectivity index (mean of three Leishmania species; reference: KB CC50 over Leishmania IC50): 11.7
